Assay results collected from several papers.
Parts stem from different laboratories: compare values within a part only. Changes are numbered by the printed parent chain.
Sequence of UniProt P61075 (whole entry, looked up): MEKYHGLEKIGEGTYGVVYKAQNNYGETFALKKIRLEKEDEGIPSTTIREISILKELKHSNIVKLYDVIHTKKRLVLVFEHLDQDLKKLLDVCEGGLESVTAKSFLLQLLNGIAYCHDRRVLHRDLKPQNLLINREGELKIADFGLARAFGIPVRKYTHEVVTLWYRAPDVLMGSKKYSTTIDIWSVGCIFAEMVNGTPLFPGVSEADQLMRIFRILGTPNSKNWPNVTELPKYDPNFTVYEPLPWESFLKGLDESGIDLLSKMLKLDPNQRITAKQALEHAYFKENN
Sequence of UniProt Q96SW2 (whole entry, looked up): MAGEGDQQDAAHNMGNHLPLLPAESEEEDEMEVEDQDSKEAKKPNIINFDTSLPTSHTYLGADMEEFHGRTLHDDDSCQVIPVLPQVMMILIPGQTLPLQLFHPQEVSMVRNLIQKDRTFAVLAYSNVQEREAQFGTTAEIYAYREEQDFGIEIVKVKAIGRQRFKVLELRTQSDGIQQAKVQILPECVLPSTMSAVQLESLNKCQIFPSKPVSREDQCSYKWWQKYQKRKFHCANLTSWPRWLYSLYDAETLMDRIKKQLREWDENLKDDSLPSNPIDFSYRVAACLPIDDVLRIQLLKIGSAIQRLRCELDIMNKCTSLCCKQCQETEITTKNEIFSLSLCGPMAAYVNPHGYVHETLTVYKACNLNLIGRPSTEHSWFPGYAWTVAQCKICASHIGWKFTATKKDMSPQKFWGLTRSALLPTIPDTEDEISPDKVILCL

Sample 1 — target: CCNA1, cyclin fold, Cln2 fusion (human); technique: yeast growth competition, sequencing; matrix: yeast; notes: strong parent motif; reference: not given; direction: higher = stronger binding
Starting sequence: viral docking peptide; TSVRRALFTGGSD; partner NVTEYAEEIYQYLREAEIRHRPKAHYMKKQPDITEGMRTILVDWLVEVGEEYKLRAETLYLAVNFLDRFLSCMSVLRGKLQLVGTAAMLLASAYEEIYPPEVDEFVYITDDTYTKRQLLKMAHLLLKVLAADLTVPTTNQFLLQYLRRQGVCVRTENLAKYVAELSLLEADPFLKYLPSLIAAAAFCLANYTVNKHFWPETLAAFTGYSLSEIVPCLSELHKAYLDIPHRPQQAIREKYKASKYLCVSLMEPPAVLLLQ
| Substitution | normalised enrichment score |
| --- | --- |
| S2E | 0.974 |
| S2P | 1.03 |
| S12I | 1.01 |
| G11F | 0.856 |
| A6I | 0.489 |

Sample 2 — observed: peptide-MHC binding; molecule type: peptide; tested at: concentration not given
Target: HLA class I histocompatibility antigen, B alpha chain, allele B*15:09 (Homo sapiens, UniProt P01889)
| Molecule | binding |
| --- | --- |
| FRDRGQHVL | active |
| FHYQDPFPL | active |
| YHENWSATL | active |

Single results of other studies — observed: cell-free assay
| SMILES | target | technique | tested at | quantity | result |
| --- | --- | --- | --- | --- | --- |
| O=C1CCC(N2Cc3c(ccc4c3OCC43CCN(Cc4ccccc4)CC3)C2=O)C(=O)N1 (stereo not shown) | Protein cereblon (CRBN, Homo sapiens, UniProt Q96SW2) | TR-FRET | 13.72 µM | inhibition | 30.1% |
| CN(C(=O)c1ccccc1)c1cc(N(C)c2ccc3c(c2)CCc2ccc(C(=O)NCCN4CCOCC4)cc2C3=O)ccc1F | Cyclin-dependent kinase 2 homolog (CRK2, Plasmodium falciparum, UniProt P61075) | competition with immobilised ligand | 1 µM | remaining binding | 100% |

For quick reference, copied from above (sample 1):
| Substitution | normalised enrichment score |
| --- | --- |
| G11F | 0.856 |
